# Experimental data of several laboratories.
# Each line is one published result; not all experiments were run side by side. “And” joins repeats or separate records; there may be more than shown. ± gives the spread as reported.
SMILES,assay,system,conditions,scale,quantity,result
Cc1cc(-c2ccc(C(=O)[C@@H]3CCCC[C@H]3C(=O)Nc3cnn4c3C(=O)NCC4)cc2)[nH]n1,,"human, urine","oral, 200 mg, 0-6 h",reference: dose,cumulative radioactivity recovery,1.77% and 1.75% and 2.88% and 1.3% and 2.75% and 2.03%
CC(C(=O)O)n1nc(Cn2cc3cc(OCC[18F])c(Cl)cc3n2)c2ccccc2c1=O (racemic),,"rat, spleen",1 h,,tracer uptake,0.05 %ID/g
O=C(Nc1cnccc1-c1ccc([18F])nc1)c1ccnc(NC(=O)C2CC2)c1,,"mice, transgenic, GSK-3β, early-stage, eyes","intravenous, dose not given, 120 min",,SUV,0.085
OC1(C(F)(F)F)CCN(c2nc(Nc3ccnc(C(F)(F)F)c3)nc(-c3cccc(C(F)(F)F)n3)n2)C1 (centres unmarked),,"Sprague-Dawley rat, both sexes, plasma","intravenous, 1 mg/kg",,AUC(0-24h),802 ± 110 ng·h/mL
O=C(O)CCCOc1ccc([18F])cc1-c1cc(-c2ccccc2C(F)(F)F)n(-c2ccccc2)n1,,"mouse, urine","intravenous, dose not given, 180 min",,tissue uptake,0.25 ± 0.1 %ID/g
CC[C@H](C)[C@@H]1NC(=O)[C@H](Cc2ccc(O)cc2)NC(=O)CCCSC[C@@H](C(=O)N(CC(=O)N[C@@H](CC(C)C)C(=O)NCC(N)=O)Cc2ccc(F)cc2)NC(=O)[C@H](CC(N)=O)NC(=O)[C@H](CCC(N)=O)NC1=O,,human,"intranasal, 50 µg repeated doses",,AEs leading to discontinuation,0%
O=C([O-])CN1CCN(CC(=O)[O-])CCN(C(CO)C(O)CO)CCN(CC(=O)[O-])CC1.[Dy+3] (centres unmarked),ICP-MS,cynomolgus monkey,"dose not given, 4 d, mass balance group",reference: dose,cumulative urinary excretion,98.8%
CCCCC/C=C\CCCO[Si](CCCCN(CC)CC)(OCCC/C=C\CCCCC)OCCC/C=C\CCCCC,,,"pH 7.5, formulated",,zeta potential,0.14 mV
C/C(N)=N/C(=N\S(=O)(=O)c1ccc(C(F)(F)F)cc1)N1C[C@H](c2ccccc2)C(c2ccc(Cl)cc2)=N1,,"male C57BL/6 mouse, heart","intravenous, 10 mg/kg",,Tmax,15 min
COCC1CN(C2CCN(c3cc(OC)c(Nc4ncc(Br)c(Nc5ccc6c(c5P(C)(C)=O)OCCO6)n4)cc3C)CC2)C1,first-in-human trial,human,"oral, 90 mg once daily",any treatment-related,adverse events,66.7%
C=CC(=O)Nc1cccc(Cn2ncc3cnc(Nc4cnn(CCOC)c4)nc32)c1,,"human, both sexes, whole blood","5 µM, 60 min",,remaining compound,82.2%
COc1cccc(OC)c1-c1cc(C(=O)NC2(C(=O)O)C3CC4CC(C3)CC2C4)nn1-c1ccc(C(=O)N(C)CCOCCOCCN(C)C(=O)[C@H](CCCCNC(=O)[C@H](CC(C)C)NC(=O)C2OC2C(=O)O)NC(=O)CN2CCN(CC(=O)[O-])CCN(CC(=O)[O-])CCN(CC(=O)[O-])CC2)cc1C(C)C.[177Lu+3] (mixture of isomers),,"mouse, HT-29 xenograft","4 h post injection, biodistribution",reference: tumour over lung uptake,tumour-to-lung ratio,3
CCn1nc(Cl)c2c1-c1cnc(N)c(c1)O[C@H](C)c1cc(F)ccc1-c1nn(C)cc1C2,,"Balb/c nude mouse, female, plasma","0.2 mg/kg twice daily for 5 days, 12 h",,free plasma concentration,1.23 nM
Cc1cc2c(cc1O)C=C1C=CC(=O)C(C)(C)[C@H]1CC2,,"male Sprague-Dawley rat, plasma","oral, 20 mg/kg",,AUC(0-t),25.3 ng·h/mL
[123I]c1ccc2nc(-c3ccc(-n4ccnn4)nc3)cn2c1,,"male Wistar rat, brain","intravenous, 4 MBq, 6 h",,tracer uptake,0.006 %ID/g
COc1cccc(OC)c1-c1cc(C(=O)NC2(C(=O)O)C3CC4CC(C3)CC2C4)nn1-c1ccc(C(=O)N(C)CCCN(C)C(=O)[C@H](CCCCNC(=O)[C@H](CC(C)C)NC(=O)C2OC2C(=O)O)NC(=O)CN2CCN(CC(=O)[O-])CCN(CC(=O)[O-])CCN(CC(=O)[O-])CC2)cc1C(C)C.[177Lu+3] (mixture of isomers),,"mouse, HT-29 xenograft","24 h post injection, biodistribution",reference: tumour over lung uptake,tumour-to-lung ratio,1.56
Cc1noc(C)c1Cn1cc(N2C(=O)CN(Cc3cccc(OS(=O)(=O)O)c3)C2=O)cn1,,"rat Sprague-Dawley male, plasma","intravenous, 1 mg/kg of parent drug, 0.5 h",,plasma concentration,2230 ng/mL
C=CC(=O)Nc1cc(Nc2nccc(-c3c[nH]c4ccccc34)n2)c(OC)cc1N(C)CCN(C)C,storage stability,human plasma,"24 h, -80 °C, medium QC level",,recovery,93.3%
C[C@]12C[C@H](c3ccc(S(C)(=O)=O)cc3)C3=C4CCC(=O)C=C4CC[C@H]3[C@@H]1CC[C@@]2(O)C(F)(F)C(F)(F)F,refers to: compound (parent),"healthy human volunteers, pooled plasma","oral, 5 mg daily, day 28, 2.5 h",,plasma concentration,28.4 ng/mL
COCCN(C)CC(=O)NC(Cc1ccc(-c2ccccc2)cc1)B(O)O (centres unmarked),,Caco-2,,,Papp B→A,22 ×10⁻⁶ cm/s
CCc1cc(C)cc(CC)c1-c1c(OC(=O)C2(C(F)(F)F)CCC2)n2n(c1=O)CCOCC2,,PBS,"2 h, pH 7.4, 25 °C, 2% DMSO",,solubility,281 µM
Cc1nc(N)nc2c1C(=O)N[C@@H](c1ccc(F)cc1-c1cccc(O[11CH3])n1)C2,ex vivo biodistribution,"mice, MDA-MB-231 subcutaneous xenograft, bone","60 min post-injection, baseline, vehicle pre-treatment",,SUV,0.7 ± 0.1
COc1cccc(OC)c1-c1cc(C(=O)NC2(C(=O)O)C3CC4CC(C3)CC2C4)nn1-c1ccc(C(=O)N(C)CCCN(C)CCCN(C)C(=O)[C@H](CCCCNC(=O)[C@H](CC(C)C)NC(=O)C2OC2C(=O)O)NC(=O)CN2CCN(CC(=O)[O-])CCN(CC(=O)[O-])CCN(CC(=O)[O-])CC2)cc1C(C)C.[177Lu+3] (mixture of isomers),,mouse HT-29 xenograft,"72 h, biodistribution",reference: tumour over large intestine,tumour-to-large intestine ratio,46.5
COc1ccc2c(c1)CN(C(=O)CCN1CCC(Cc3ccccc3)CC1)CC[S+]2[O-] (centres unmarked),,human plasma,75 ng/mL,,fu,0.145
CCCCN1C(=O)c2cccc3c(NCCCCCCCCCCN4CCOCC4)ccc(c23)C1=O,,DMF,,,fluorescence quantum yield,0.98
O=S(=O)(Nc1ccc(OC(F)(F)F)cc1)N1CCCC(C2c3ccc(F)cc3CCc3cc(F)ccc32)C1 (centres unmarked),,mouse,"oral, 30 mg/kg, 2 h",reference: brain over plasma,tissue/plasma ratio,< 0.02
C=CC(=O)Nc1cc(Nc2nccc(-c3cn(C)c4ccccc34)n2)c(OC)cc1N(C)CCNC,storage stability,human plasma,"10 d, -80 °C, LLOQ level",,recovery,92.7%
O=C(Nc1cnccc1-c1ccc([18F])cc1)c1ccnc(NC(=O)C2CC2)c1,,"mice, transgenic, GSK-3β, early-stage, small intestine","intravenous, dose not given, 120 min",,SUV,1.04
COc1cccc(OC)c1-c1cc(C(=O)NC2(C(=O)O)C3CC4CC(C3)CC2C4)nn1-c1ccc(C(=O)N(C)CCOCCN(C)C(=O)[C@H](CCCCNC(=O)[C@H](CC(C)C)NC(=O)C2OC2C(=O)O)NC(=O)CN2CCN(CC(=O)[O-])CCN(CC(=O)[O-])CCN(CC(=O)[O-])CC2)cc1C(C)C.[177Lu+3] (mixture of isomers),,"mouse, HT-29 xenograft","24 h post injection, biodistribution",reference: tumour over lung uptake,tumour-to-lung ratio,1.46
CC[C@H](C)[C@H](NC(=O)CNC(=O)[C@H](C)NC(=O)[C@H](CC(=O)O)NC(=O)[C@H](CO)NC(=O)[C@H](C)NC(=O)[C@H](CC(C)C)NC(=O)[C@H](CCCCN)NC(=O)[C@H](CCCCN)NC(=O)[C@H](CCSC)NC(=O)[C@H](CC(N)=O)NC(=O)[C@H](Cc1ccccc1)NC(=O)[C@H](CC(=O)O)NC(=O)[C@@H](N)CCSC)C(=O)N[C@@H](Cc1c[nH]c2ccccc12)C(=O)N[C@@H](Cc1ccccc1)C(=O)N[C@H](C(=O)N[C@@H](CCCNC(=N)N)C(=O)N[C@@H](C)C(=O)N[C@H](C(=O)N[C@@H](CCC(N)=O)C(=O)N[C@@H](Cc1ccccc1)C(=O)N[C@H](C(=O)N[C@@H](CCC(=O)O)C(=O)N[C@@H](CCC(=O)O)C(=O)N[C@@H](CCCCN)C(=O)N[C@@H](Cc1ccccc1)C(=O)NCC(=O)N[C@@H](CCC(N)=O)C(=O)N[C@@H](C)C(N)=O)[C@@H](C)O)C(C)C)[C@@H](C)O,,water,,,folding free energy,5.99 kcal/mol
N=C(N)NCCC[C@@H]1NC(=O)[C@H](CO)NC(=O)[C@@H](NC(=O)[C@H](CO)NC(=O)[C@H](CO)NC(=O)[C@H](Cc2c[nH]c3ccccc23)NC(=O)CNC(=O)[C@H](CO)NC(=O)[C@@H](N)Cc2c[nH]c3ccccc23)CSSC[C@@H](C(=O)NCC(=O)O)NC(=O)[C@H](CO)NC1=O,,"human, plasma","i.v., 5 mg/kg thrice weekly, 4 weeks, mean",,Ctrough,0 ng/mL
Nc1ccc2cc(/C=C/C(=O)c3ccc(O)cc3)ccc2c1,,toluene,20 °C,,excitation maximum,402 nm
CN(O)C(=O)CCC(=O)NCCCN(CCCCN(CCCNC(=O)CCC(=O)N(C)O)C(=O)CCC(=O)N(C)O)C(=O)CCC(=O)N(C)O.[89Zr],radio-TLC,aqueous buffer,"1 d, pH 7.2, 37 °C, 89Zr-labelled complex, added: CuCl2 10-fold excess",,intact complex,97.9 ± 1.3%
CC[C@H](C)[C@H](NC(=O)[C@H](CCCCN)NC(C)=O)C(=O)N[C@@H](C)C(=O)N[C@@H](C)C(=O)N[C@@H](CC(C)C)C(=O)N[C@@H](CCCCN)C(=O)N[C@@H](CCC(=O)O)C(=O)N[C@@H](CCCCN)C(=O)N[C@H](C(=O)N[C@@H](C)C(=O)N[C@@H](C)C(=O)N[C@@H](CC(C)C)C(=O)N[C@@H](CCCCN)C(=O)N[C@@H](CCC(=O)O)C(=O)N[C@@H](CCCCN)C(=O)N[C@H](C(=O)N[C@H]1CSCc2ccc(cc2)CSC[C@@H](C(=O)NCC(=O)N[C@@H](Cc2c[nH]c3ccccc23)C(N)=O)NC(=O)[C@H](CCCCN)NC(=O)[C@H](CC(C)C)NC(=O)[C@H](C)NC1=O)[C@@H](C)CC)[C@@H](C)CC,circular dichroism at 222 nm,PBS,"pH 7.4, 20 °C, single peptide 50 µM total",,helicity,49%
C=C(NC(=O)c1csc(-c2nc3c(cc2O)-c2nc(cs2)C(=O)NC(C(C)O)C(=O)NC(=C(C)OC)c2nc(cs2)C(=O)NC2c4nc(cs4)C(=O)NC(COC(=O)c4c5c6c(cccc6n4O)COC(=O)C(OC4CC(C)(O)C(N(C)C)C(C)O4)C2OC5)c2nc-3cs2)n1)C(N)=O (centres unmarked),,"cynomolgus monkey, both sexes, plasma","intravenous infusion, 3 mg/kg single dose",,AUC(0-last),24400 ± 8980 ng·h/mL

# A few entries again:
SMILES,assay,system,conditions,scale,quantity,result
C[C@]12C[C@H](c3ccc(S(C)(=O)=O)cc3)C3=C4CCC(=O)C=C4CC[C@H]3[C@@H]1CC[C@@]2(O)C(F)(F)C(F)(F)F,refers to: compound (parent),"healthy human volunteers, pooled plasma","oral, 5 mg daily, day 28, 2.5 h",,plasma concentration,28.4 ng/mL
Cc1cc(-c2ccc(C(=O)[C@@H]3CCCC[C@H]3C(=O)Nc3cnn4c3C(=O)NCC4)cc2)[nH]n1,,"human, urine","oral, 200 mg, 0-6 h",reference: dose,cumulative radioactivity recovery,1.77% and 1.75% and 2.88% and 1.3% and 2.75% and 2.03%
